# Results from different studies.
# Protocols differ between the studies behind these lines. “And” joins repeats or separate records; there may be more than shown. ± marks the error that the study gave. Ends that are not written are not given here. The star is where a group is joined. * marks the point of attachment.
# CDK5 with p25: Cyclin-dependent kinase 5, with p25 (CDK5, Homo sapiens, UniProt Q00535)
# B1: chain MSEILPYGEDKMGRFGADPEGSDLSFSCRLQDTNSFFAGNQAKRPPKLGQIGRAKRVVIEDDRIDDVLKGMGEKPPSGV
Substance,tested on,test,system,conditions,how to read,measurement,value
KEAFWDRCLSVINLMSSKMLQINI,CDK5 with p25,"phosphotransferase activity, radiometric",peptide,"concentration not given, 10% DMSO, together with: histone substrate",baseline: p5-WT peptide,activity change,14%
alkynyl-geranylgeranyl pyrophosphate,"geranylgeranyltransferase type-I (Rattus norvegicus, UniProt P53610+Q04631)","peptide prenylation, substrate, fluorescence anisotropy",,together with: FAM-RHOA peptide,,Vmax,8.4 fmol/min
milbemycin oxime,"CDR1 (Candida albicans, UniProt Q5ANA3)","binding, microscale thermophoresis",,611 pM,,fraction bound,-4.29%
colistin,Enterobacter cloacae,,clinical isolate RKI 733/14,,,MIC,≤ 0.5 µg/mL
GSGSSRYWANATRSGG,"Tap1/Tap2 (Rattus norvegicus, UniProt P36370+P36372)",Edman degradation,"peptide, T2/TAP1+2 cells",,,translocated peptide size,≤ 12 amino acids
Ac-PQLPF-NH2,"TGM2 (Homo sapiens, UniProt P21980)","deamidation, substrate",peptide,,,kcat/KM,2000 ± 167 M⁻¹ s⁻¹
Cbz-WEHD-CH2F (Z-WEHD-FMK; Cbz = O=C(OCc1ccccc1)*; CH2F = FC*),"Caspase-1 (CASP1, Homo sapiens, UniProt P29466)","inhibitor, FRET",,"100 nM, 30 min preincubation, 5 nM enzyme",,remaining activity,0%
KEAFWDRCLSVINLMSSKMLDINA,CDK5 with p25,"phosphotransferase activity, radiometric",peptide,"concentration not given, 10% DMSO, together with: histone substrate",baseline: p5-WT peptide,activity change,65%
FRKKVILEDKVKNF,"HLA-DR, human",DELFIA,peptide,"10 µM, 48 h, 37 °C",baseline: peptide alone,binding,> 2 fold
maltotriose,"uncharacterized protein (Pelagibacter ubique, UniProt Q4FMK2)","thermal stabilisation, differential scanning fluorimetry",Candidatus Pelagibacter ubique,,,ΔTm,7.48 °C
AAFRFGHATIHPLVRRLDASFQEH,"HLA-DR, human",DELFIA,peptide,"10 µM, 48 h, 37 °C",baseline: peptide alone,binding,> 2 fold
Tannic acid,"P4HB (Homo sapiens, UniProt P07237)",disulfide reductase activity,,"20 µM, 15 min, together with: di-eosin-GSSG",,inhibition,inhibited
alpinetin,"MAL12 (Saccharomyces cerevisiae S288c, UniProt P53341)",enzyme activity,,"concentration not given, together with: p-NPG",,inhibition,0%
KEAFWDRCLSVLNLMSSKMLQINA,CDK5 with p25,"phosphotransferase activity, radiometric",peptide,"concentration not given, 10% DMSO, together with: histone substrate",baseline: p5-WT peptide,activity change,25%
Malic enzyme 2 S106K (human),,"enzyme activity, NADH absorbance",,"without fumarate, together with: L-malate varied",,Hill coefficient,1.74 ± 0.06
KEAFWDRCLSIINLMSSKMLQINA,CDK5 with p25,"phosphotransferase activity, radiometric",peptide,"concentration not given, 10% DMSO, together with: histone substrate",baseline: p5-WT peptide,activity change,2%
BzATP,"P2X purinoceptor 7 (P2rx7, Rattus norvegicus, UniProt Q64663, I214A)","ion current, agonist, two-electrode voltage clamp",Xenopus oocytes,0.41 µM,,normalized current,0
KEAFWDRCLSVINLMSYKMLQINA,CDK5 with p25,"phosphotransferase activity, radiometric",peptide,"concentration not given, 10% DMSO, together with: histone substrate",baseline: p5-WT peptide,activity change,26%
RPGVNLSL,"HLA class I histocompatibility antigen, B alpha chain (Homo sapiens, UniProt P01889)",iTopia initial binding,peptide,"11 µM, 18 h, 21 °C, HLA-B7 allele",baseline: allele positive control peptide,binding,72%
B1,"CAMK2A (Homo sapiens, UniProt Q9UQM7, D135N)","binding, ITC",kinase domain D135N,together with: AMPPNP,,ΔH,-9.75 kcal/mol and -9.7 kcal/mol
KEAFWDRCLSVINLMMSKMLQINA,CDK5 with p25,"phosphotransferase activity, radiometric",peptide,"concentration not given, 10% DMSO, together with: histone substrate",baseline: p5-WT peptide,activity change,44%
11-deoxycorticosterone,CYP11B2 (human),"substrate binding, stopped-flow global kinetic fitting",purified enzyme,"3-state conformational selection model, together with: equimolar adrenodoxin",,rate constant k-2,15 ± 0.779 s⁻¹
IFHKNNQLAF,human HLA-A*2401 (HLA-A24),iTopia initial binding,peptide,"11 µM, 18 h, 21 °C",baseline: allele positive control peptide,binding,104%
2-methylthio-ATP tetrasodium,"Genome polyprotein, NS3 helicase domain (Hepatitis C virus genotype 1b, UniProt Q9WMX2)","NS3 helicase DNA binding, fluorescence, Cy5-dT15",,100 µM,,inhibition,41%
KEAFWDRCLSVIDLMSSKMLQINA,CDK5 with p25,"phosphotransferase activity, radiometric",peptide,"concentration not given, 10% DMSO, together with: histone substrate",baseline: p5-WT peptide,activity change,64%
For-MNFA (N-formyl; For = O=C*),"Peptide deformylase, mitochondrial (Homo sapiens, UniProt Q9HBH1)","substrate, FDH/NAD+-coupled",,pH 7.5,,Km,2440 ± 739 µM
KEAFWDRCLSVINLMSMKMLQINA,CDK5 with p25,"phosphotransferase activity, radiometric",peptide,"concentration not given, 10% DMSO, together with: histone substrate",baseline: p5-WT peptide,activity change,41%
ESLSLSLSLSLSLEGTVFTSWEEYLDWV,"PCSK9 (Homo sapiens, UniProt Q8NBP7)",SPR,peptide,78 nM to 40 µM,,maximum binding signal,1580 RU
Ivermectin,"GABA-A receptor; alpha-1/beta-2/gamma-2 (Rattus norvegicus, UniProt P18508+P62813+P63138)",whole-cell patch clamp,HEK293 cells,"concentration not given, 30 s",baseline: maximum,response amplitude,50%
Rhodiosin,"Cytochrome P450 1A2 (CYP1A2, Homo sapiens, UniProt P05177)",LC-MS/MS,human liver microsomes,"10 µM, together with: phenacetin",,remaining activity,25.9 ± 0.64%
human ME2 F68V,,"enzyme activity, NADH absorbance",,"with fumarate 3 mM, together with: L-malate varied",,Hill coefficient,1.29 ± 0.03

# Repeated from above:
Substance,tested on,test,system,conditions,how to read,measurement,value
KEAFWDRCLSVIDLMSSKMLQINA,CDK5 with p25,"phosphotransferase activity, radiometric",peptide,"concentration not given, 10% DMSO, together with: histone substrate",baseline: p5-WT peptide,activity change,64%
For-MNFA (N-formyl; For = O=C*),"Peptide deformylase, mitochondrial (Homo sapiens, UniProt Q9HBH1)","substrate, FDH/NAD+-coupled",,pH 7.5,,Km,2440 ± 739 µM
KEAFWDRCLSVINLMSMKMLQINA,CDK5 with p25,"phosphotransferase activity, radiometric",peptide,"concentration not given, 10% DMSO, together with: histone substrate",baseline: p5-WT peptide,activity change,41%
ESLSLSLSLSLSLEGTVFTSWEEYLDWV,"PCSK9 (Homo sapiens, UniProt Q8NBP7)",SPR,peptide,78 nM to 40 µM,,maximum binding signal,1580 RU
Ivermectin,"GABA-A receptor; alpha-1/beta-2/gamma-2 (Rattus norvegicus, UniProt P18508+P62813+P63138)",whole-cell patch clamp,HEK293 cells,"concentration not given, 30 s",baseline: maximum,response amplitude,50%
